Measured values collected from several papers.
Parts stem from different laboratories: compare values within a part only. Changes are numbered by the printed parent chain.
UniProt Q84WU6, sequence (whole entry, looked up): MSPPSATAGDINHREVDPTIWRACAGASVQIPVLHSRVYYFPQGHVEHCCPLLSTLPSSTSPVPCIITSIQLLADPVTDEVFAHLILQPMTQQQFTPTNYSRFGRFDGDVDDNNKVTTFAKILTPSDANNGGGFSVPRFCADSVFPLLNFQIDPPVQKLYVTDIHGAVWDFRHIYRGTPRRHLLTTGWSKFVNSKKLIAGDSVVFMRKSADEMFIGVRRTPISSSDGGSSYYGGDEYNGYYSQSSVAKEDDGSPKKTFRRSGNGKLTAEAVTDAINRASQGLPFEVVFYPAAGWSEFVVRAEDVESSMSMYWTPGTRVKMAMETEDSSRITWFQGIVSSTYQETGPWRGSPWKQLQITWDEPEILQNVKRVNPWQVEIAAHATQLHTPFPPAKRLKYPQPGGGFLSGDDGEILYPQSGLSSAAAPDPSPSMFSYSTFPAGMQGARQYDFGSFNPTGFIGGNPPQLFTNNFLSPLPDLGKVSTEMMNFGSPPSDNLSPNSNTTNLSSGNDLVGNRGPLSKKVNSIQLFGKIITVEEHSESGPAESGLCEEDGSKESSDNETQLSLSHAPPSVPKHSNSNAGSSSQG
UniProt Q9C7I9, sequence (whole entry, looked up): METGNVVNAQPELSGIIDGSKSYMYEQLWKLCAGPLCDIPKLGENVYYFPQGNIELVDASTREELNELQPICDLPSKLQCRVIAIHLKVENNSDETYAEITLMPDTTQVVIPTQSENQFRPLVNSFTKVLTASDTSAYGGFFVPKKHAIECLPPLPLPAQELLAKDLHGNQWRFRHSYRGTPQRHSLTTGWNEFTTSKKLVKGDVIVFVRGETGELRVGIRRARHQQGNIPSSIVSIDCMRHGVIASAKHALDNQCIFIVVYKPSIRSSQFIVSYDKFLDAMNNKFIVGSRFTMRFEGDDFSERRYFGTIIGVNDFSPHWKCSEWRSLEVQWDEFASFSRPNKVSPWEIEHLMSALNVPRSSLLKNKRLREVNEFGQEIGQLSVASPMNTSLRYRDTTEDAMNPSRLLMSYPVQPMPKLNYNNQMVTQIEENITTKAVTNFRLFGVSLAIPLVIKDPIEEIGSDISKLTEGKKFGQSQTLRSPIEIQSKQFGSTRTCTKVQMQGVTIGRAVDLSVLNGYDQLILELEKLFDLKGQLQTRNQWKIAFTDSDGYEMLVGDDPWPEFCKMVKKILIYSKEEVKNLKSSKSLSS

Sample 1
Target: HLA class I histocompatibility antigen, A alpha chain, allele A*80:01 (Homo sapiens, UniProt P04439)
Read-out: peptide-MHC binding
Molecule type: peptide
Concentration: concentration not given
`FHVNPAFVL` — result for binding: “inactive”.
`NLFDWMHFL` — result for binding: “inactive”.
`MGFPSLATK`: binding “inactive”.

Sample 2
Target: CCNE1, cyclin fold, Cln2 fusion (human)
Method: yeast growth competition, sequencing
Matrix: yeast
Setting: strong parent motif
Relative to: not given
Direction: higher = stronger binding
Starting sequence: viral docking peptide; YKVKRRLVFGADD
Under “normalised enrichment score”, `YKVKRSLVFGADD [R6S]` is recorded as 1.21.
`YKVKRRLSFGADD [V8S]` — result for “normalised enrichment score”: 6.45.
`YKVKRRLVFGQDD [A11Q]` — result for “normalised enrichment score”: 5.92.
`YKVKRRLVFGIDD [A11I]` — result for “normalised enrichment score”: 6.16.
`YIVKRRLVFGADD [K2I]`: “normalised enrichment score” 4.6.
`YKVKRYLVFGADD [R6Y]` — result for “normalised enrichment score”: 1.59.
`YKVERRLVFGADD [K4E]` — result for “normalised enrichment score”: 1.57.
Under “normalised enrichment score”, `YKVKRRLYFGADD [V8Y]` is recorded as 6.01.
`YKVKRRLVFLADD [G10L]`: “normalised enrichment score” 5.06.
Under “normalised enrichment score”, `YKVKRRLVDGADD [F9D]` is recorded as 0.48.
For `YKMKRRLVFGADD [V3M]`, “normalised enrichment score” read 1.04.
`YKVKRRLVFGAVD [D12V]`: “normalised enrichment score” 5.4.
Under “normalised enrichment score”, `YWVKRRLVFGADD [K2W]` is recorded as 4.27.
For `YKVQRRLVFGADD [K4Q]`, “normalised enrichment score” read 3.99.
Under “normalised enrichment score”, `YKVKRRLVFDADD [G10D]` is recorded as 6.75.
`YKVKRRLVFGAMD [D12M]` — result for “normalised enrichment score”: 5.75.
`YKVKDRLVFGADD [R5D]`: “normalised enrichment score” 0.163.
Under “normalised enrichment score”, `YKRKRRLVFGADD [V3R]` is recorded as 0.41.
For `YKVKRRLVFGAND [D12N]`, “normalised enrichment score” read 5.48.
For `YKVKRRLVFCADD [G10C]`, “normalised enrichment score” read 5.63.
`YKVKRRLVFMADD [G10M]`: “normalised enrichment score” 5.19.
`YKVKRRLVFGAYD [D12Y]` — result for “normalised enrichment score”: 4.94.
`YKVPRRLVFGADD [K4P]`: “normalised enrichment score” 1.69.
For `YKVKTRLVFGADD [R5T]`, “normalised enrichment score” read 0.672.
For `YKVKRRLVFHADD [G10H]`, “normalised enrichment score” read 5.09.

Sample 3
Target: Eukaryotic initiation factor 4A-I (EIF4A1, Homo sapiens, UniProt P60842, residues 1-406, full length assumed)
UniProt P60842, sequence (whole entry, looked up): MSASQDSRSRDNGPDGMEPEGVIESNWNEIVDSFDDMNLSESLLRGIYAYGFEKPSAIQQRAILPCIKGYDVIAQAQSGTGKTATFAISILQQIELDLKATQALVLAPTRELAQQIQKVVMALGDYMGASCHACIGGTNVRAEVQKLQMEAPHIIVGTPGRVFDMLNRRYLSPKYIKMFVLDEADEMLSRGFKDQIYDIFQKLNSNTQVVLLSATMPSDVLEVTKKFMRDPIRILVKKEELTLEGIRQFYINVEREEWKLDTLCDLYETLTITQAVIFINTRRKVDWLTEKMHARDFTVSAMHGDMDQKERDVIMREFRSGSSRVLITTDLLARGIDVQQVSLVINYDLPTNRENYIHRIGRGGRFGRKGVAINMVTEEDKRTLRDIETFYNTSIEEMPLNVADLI
Method: RNA Bind-n-Seq
Molecule type: RNA
Matrix: in vitro
Concentration: 90 pmol
Setting: 4-mer, random 30-nt RNA, single round
With: 3 µM iPr-DMDA-PatA, 2 mM ADP, 2 mM phosphate
Relative to: input library
Direction: higher = stronger binding
With `CCAA` the 4-mer enrichment was 1.14 fold.
`GAAC` has a 4-mer enrichment of 1.15 fold.
For `ACCC`, the 4-mer enrichment was 1.12 fold.
For `AGUG`, the 4-mer enrichment was 0.96 fold.
With `UCGC` the 4-mer enrichment was 0.841 fold.
For `CCGG`, the 4-mer enrichment was 0.732 fold.
With `CCCG` the 4-mer enrichment was 0.876 fold.
`AAGA` has a 4-mer enrichment of 1.57 fold.

Sample 4
Target: Histone acetyltransferase KAT6A, winged helix 1, GST fusion (KAT6A, Homo sapiens, UniProt Q92794, residues 1-85)
Method: protein binding microarray
Molecule type: double-stranded DNA, one strand shown
Matrix: in vitro
Concentration: not given
Setting: 8-mer, flanks averaged, mean of 2 arrays, mostly near background
Relative to: not given
Direction: higher = stronger binding
Target sequence (chain): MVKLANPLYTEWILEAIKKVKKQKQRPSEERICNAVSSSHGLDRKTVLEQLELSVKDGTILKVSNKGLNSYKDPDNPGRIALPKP
With `AGTTAAAT` the E-score was -0.0842.
`CTACGCGA` gave an E-score of 0.181.
With `CGAGTTTC` the E-score was -0.0961.
With `ACTGTCGG` the E-score was 0.218.
The E-score of `CTGGGCTA` is reported as -0.132.
With `AGGGACGA` the E-score was -0.0246.
The E-score of `AACATATT` is reported as 0.000135.
For `CCACAGTA`, the E-score was -0.135.

Sample 5
Target: Microphthalmia-associated transcription factor, full length (MITF, Homo sapiens, UniProt O75030-10, residues 1-413)
Method: protein-binding microarray
Molecule type: hairpin DNA
Matrix: in vitro
Concentration: not given
Setting: whole hairpin DNA, median over replicate spots
Relative to: not given
Direction: higher = stronger binding
The median fluorescence of `CACTTAGGACGTGATTTTGGTCCTCCAAAATCACGTCCTAAGTGACACTC (5mC at 37)` is reported as 5570 a.u.
`CACTTAGCACGGGATTTTGGTCCTCCAAAATCCCGTGCTAAGTGACACTC (5mC at 33)` has a median fluorescence of 12900 a.u.
`CACTTAGCACGCGATTTTGGTCCTCCAAAATCGCGTGCTAAGTGACACTC (5mC at 12)` has a median fluorescence of 12100 a.u.
`CACTTAGCAAGTGATTTTGGTCCTCCAAAATCACTTGCTAAGTGACACTC` gave a median fluorescence of 4610 a.u.
For `GAGGCCTAGCCGGTGCTGCCTCCTGGCAGCACCGGCTAGGCCTCACACTC (5mC at 33)`, the median fluorescence was 5460 a.u.
`GAGGCCTAGTACGTGCTGCCTCCTGGCAGCACGTACTAGGCCTCACACTC` gave a median fluorescence of 6250 a.u.
`CACTTAGCACGTGACTTTGGTCCTCCAAAGTCACGTGCTAAGTGACACTC (5mC at 15)` has a median fluorescence of 29000 a.u.
`GAGGCCTAGGACGTGCTGCCTCCTGGCAGCACGTCCTAGGCCTCACACTC (5mC at 35)` gave a median fluorescence of 6030 a.u.

Further values, each from its own experiment
For `ARF17 (Arabidopsis thaliana, UniProt Q84WU6)`, the positive tests was 0 (ARF20 484-590 (Arabidopsis thaliana, UniProt Q9C7I9); two-hybrid; weak activation fusion; relative to: out of 4 tests, higher = firmer interaction).

Repeated from above (sample 2):
`YKVKRRLVFGAYD [D12Y]` — result for “normalised enrichment score”: 4.94.
`YKVPRRLVFGADD [K4P]`: “normalised enrichment score” 1.69.
For `YKVKTRLVFGADD [R5T]`, “normalised enrichment score” read 0.672.
For `YKVKRRLVFHADD [G10H]`, “normalised enrichment score” read 5.09.
